Assay results collected from several papers.
Lines come from different studies, so protocols differ. Numbers after ± are the reported error.

With CC(C)C[C@@H]1NC(=O)CNC(=O)[C@H](CC(N)=O)NC(=O)[C@H](CCCNC(=N)N)NC(=O)[C@H]([C@@H](C)O)NC(=O)[C@@H]2CSSC[C@@H]3NC(=O)[C@H]([C@@H](C)O)NC(=O)CNC(=O)CNC(=O)[C@H](C(C)C)NC(=O)[C@@H]4CSSC[C@H](NC(=O)[C@H]([C@@H](C)O)NC(=O)[C@H](CSSC[C@H](NC(=O)[C@H](C(C)C)NC(=O)[C@@H]5CCCN5C1=O)C(=O)NCC(=O)N[C@@H](CCC(=O)O)C(=O)N[C@@H]([C@@H](C)O)C(=O)N4)NC(=O)CNC(=O)[C@@H]1CCCN1C(=O)[C@H]([C@@H](C)O)NC(=O)[C@H](CC(N)=O)NC3=O)C(=O)N[C@@H](CO)C(=O)N[C@@H](Cc1c[nH]c3ccccc13)C(=O)N1CCC[C@H]1C(=O)N[C@@H](C(C)C)C(=O)N2 the CC50 was 6.42 ± 0.59 µM (HeLa; resazurin; 24 h).
For O=C(NCc1ccc(F)cc1F)c1cn(Cc2ccc(F)cc2)cc(O)c1=O, the CC50 was > 50 µM (HFF; cell growth or viability, MTS; 7 days).
C=C(C)[C@@H]1CC[C@]2(COS(=O)(=O)c3ccc(C)cc3)CC[C@]3(C)[C@H](CC[C@@H]4[C@@]5(C)CCCNC(C)(C)[C@@H]5CC[C@]43C)[C@@H]12 gave a CC50 of 3.81 µM (HFF; cell growth or viability, ATP luminescence).
C=CC1=C(C)c2cc3nc(cc4[nH]c(cc5[nH]c(cc1n2)c(C)c5C=C)c(C)c4CCC(=O)OCc1ccccc1)C(CCC(=O)O)=C3C gave a CC50 of 198.6 ± 1.62 µM (dog cells).
With CC1CCC(C(C)(C)C(=O)Nc2ccc(Oc3ccccc3)cc2)CC1 (centres unmarked) the CC50 was > 12.5 µM (BaF3; cell growth or viability, ATP luminescence; 72 h).
The CC50 of O=C(NCc1cc(F)ccc1F)c1cn(Cc2ccc(F)cc2)cc(O)c1=O is reported as > 50 µM (HFF; cell growth or viability, MTS; 7 days).
With CN1CC23C4CCC5C4C4C2CCC4C53C1 the CC50 was ≥ 20 µM (dog cells; cytotoxicity; 3 (unit not given)).
The CC50 of CC(C)C[C@@H]1NC(=O)[C@H](CCCCN)NC(=O)[C@H](CC(C)C)NC(=O)[C@@](C)(NC(=O)[C@H](Cc2ccccc2)NC(=O)[C@H](Cc2ccc(O)cc2)NC(=O)[C@H](C)NC(=O)[C@@H](N)[C@@H](C)O)CCCC=CCCC[C@@](C)(C(=O)NCC(=O)N[C@@H](CCCNC(=N)N)C(=O)N[C@@H](Cc2c[nH]c3ccccc23)C(N)=O)NC1=O is reported as 50 µM (MT-4).
The CC50 of C1CCN(CC23C4CCC5C4C4C(CCC42)C53)CC1 is reported as 150 µM (dog cells; cytotoxicity; 3 (unit not given)).
For COc1cc(OC)cc([C@@H]2c3cc(/C=C/c4cc(O)cc(O)c4)ccc3O[C@H]2c2ccc(O)cc2)c1, the CC50 was 74.5 µM (dog cells; 24 (unit not given)).
For NC(Cc1cc(O)c(O)cc1O)C(=O)O (racemic), the CC50 was 30 ± 1.8 µM (Huh-7, mock-infected; MTS; 4 (unit not given)).
With CC(C)C[C@H](NC(=O)CN)C(=O)N[C@@H](CC(C)C)C(=O)N[C@@H](CCCCN)C(=O)N[C@@H](CC(C)C)C(=O)N[C@@H](CC(C)C)C(=O)N[C@@H](CCCCN)C(=O)N[C@@H](CCCCN)C(=O)N[C@@H](CC(C)C)C(=O)N[C@@H](CC(C)C)C(=O)N[C@@H](CCCCN)C(=O)N[C@@H](CC(C)C)C(=O)N[C@@H](CC(C)C)C(=O)N[C@@H](CCCCN)C(N)=O the CC50 was 102 µM (HDMEC; cytotoxicity).
The CC50 of CN(C)CC12C3CCC4C3C3C(CCC31)C42 is reported as 47 µM (dog cells; cytotoxicity; 3 (unit not given)).
With CONC(=O)[C@H]1[C@@H](O)[C@@]2(O)c3c(OC)cc(OC)cc3O[C@@]2(c2ccc(OC)cc2)[C@@H]1c1ccccc1 the CC50 was > 5 µM (murine hepatocytes, mock-infected; cytotoxicity).
The CC50 of O=C(NCc1ccc(Cl)cc1Cl)c1cn(Cc2ccc(F)cc2)cc(O)c1=O is reported as 3.7 µM (HFF; cell growth or viability, MTS; 7 days).
C=C1CCC2C(C)(CO)C(O)CCC2(C)C1CC(SC(=S)N1CCN(Cc2cc(F)c(F)cc2F)CC1)C1=CCOC1=O (centres unmarked) gave a CC50 of 41 ± 2.62 µM (HEK-293T; MTT; 24 h).
The CC50 of CC(C)C[C@H](NC(=O)[C@H](CCCCN)NC(=O)[C@H](CC(C)C)NC(=O)[C@]1(C)CCCC=CCCC[C@](C)(N)C(=O)N[C@@H](C)C(=O)N[C@@H](Cc2ccc(O)cc2)C(=O)N[C@@H](Cc2ccccc2)C(=O)N1)C(=O)N[C@@H](C)C(=O)NCC(=O)N[C@@H](CCCNC(=N)N)C(=O)N[C@@H](Cc1c[nH]c2ccccc12)C(N)=O is reported as 25 µM (MT-4).
CC(N)C12C3CCC4C3C3C(CCC31)C42 (centres unmarked) has a CC50 of ≥ 100 µM (dog cells; cytotoxicity; 3 (unit not given)).
With COC(=O)c1cn(Cc2ccc(F)cc2)cc(OC)c1=O the CC50 was > 50 µM (HFF; cell growth or viability, MTS; 7 days).
Brc1c(Br)c(Br)c2[nH]nnc2c1Br gave a CC50 of 30.9 ± 1.6 µM (Huh-7, mock-infected; MTS; 4 (unit not given)).
The CC50 of c1csc(CNC23C4CCC5C4C4C(CCC42)C53)c1 is reported as ≥ 20 µM (dog cells; cytotoxicity; 3 (unit not given)).
For C=CC1=C(C)c2cc3nc(cc4[nH]c(cc5[nH]c(cc1n2)c(C)c5C=C)c(C)c4CCC(=O)OCc1ccc(-c2ccccc2)cc1)C(CCC(=O)O)=C3C, the CC50 was 237 ± 2.72 µM (dog cells).
The CC50 of O=C(NCc1ccc(F)c(F)c1)c1cn(Cc2ccc(F)cc2)cc(O)c1=O is reported as 17 µM (HFF; cell growth or viability, MTS; 7 days).
CCN(CC)CCOC1CCC2(C)C(=CCC3C4CCC(=O)C4(C)CCC32)C1 (centres unmarked) gave a CC50 of 74.4 µM (MRC5; cell growth or viability, MTT; 24 h).
With COc1cn(Cc2ccc(F)cc2)cc(C(=O)NCc2ccc(F)cc2F)c1=O the CC50 was > 50 µM (HFF; cell growth or viability, MTS; 7 days).
With O=C(COc1ccc2c(c1O)C(=O)c1ccccc1C2=O)c1ccccc1 the CC50 was ~40 µM (MT2; cell growth or viability).
c1csc(CNCC23C4CCC5C4C4C(CCC42)C53)c1 has a CC50 of 30 µM (dog cells; cytotoxicity; 3 (unit not given)).
With COc1ccc(NC(=O)c2cn(Cc3ccc(F)cc3)cc(O)c2=O)cc1 the CC50 was 6.5 µM (HFF; cell growth or viability, MTS; 7 days).
For CC(C)=CCC/C(C)=C/CC/C(C)=C/CNCCOC1C2CC3CC(C2)CC1C3 (centres unmarked), the CC50 was 11 µg/mL (HEK-293T; cell growth or viability).
CN1CC(=O)N=C1N.C[C@H](CCC(=O)O)[C@H]1CC[C@H]2[C@@H]3CC[C@@H]4C[C@H](O)CC[C@]4(C)[C@H]3CC[C@]12C has a CC50 of > 50 µg/mL (A549-hACE2).
The CC50 of Cc1ccc(NCCN(C)CCNc2ccnc3cc(Cl)ccc23)c2c(=O)c3ccccc3sc12 is reported as > 25 µM (Vero-E6, HeLa, HEK-293T, Huh7.5 cells average; cell viability, nuclei count; 16 h).
The CC50 of CC(C)C[C@H](NC(=O)[C@H](CCCCN)NC(=O)[C@@H](NC(=O)[C@H](CCCNC(=N)N)NC(=O)[C@H](Cc1c[nH]c2ccccc12)NC(=O)[C@@H](N)CCCCN)C(C)C)C(=O)N[C@H](C(=O)N[C@@H](C)C(=O)N[C@@H](CCCCN)C(=O)N[C@H](C(=O)N[C@@H](CCCNC(=N)N)C(=O)N[C@@H](Cc1c[nH]c2ccccc12)C(=O)N[C@@H](CCCCN)C(N)=O)C(C)C)[C@@H](C)O is reported as 69.3 µM (HaCaT; cell viability; 24 h, serum-free medium).
For C=CC1=C(C)c2cc3nc(cc4[nH]c(cc5[nH]c(cc1n2)c(C)c5C=C)c(C)c4CCC(=O)OCCCCCCCCCCCCCC)C(CCC(=O)O)=C3C, the CC50 was 128.3 ± 0.54 µM (dog cells).
With CCN(CC)C12C3CCC4C3C3C(CCC31)C42 the CC50 was > 100 µM (dog cells; cytotoxicity; 3 (unit not given)).
For O=C(O[C@@H]1Cc2c(O)cc(O)cc2O[C@@H]1c1cc(O)c(O)c(O)c1)c1cc(O)c(O)c(O)c1, the CC50 was 23.2 ± 7.5 µM (Huh-7, mock-infected; MTS; 4 (unit not given)).
C1=[N+]2CCCC[N+]3=Cc4ccc5[n]4[Au-]23[n]2c1ccc2-c1nc2ccccc2nc1-5.F[P-](F)(F)(F)(F)F has a CC50 of 50 µM (CNS cancer cell lines; NCI60 panel mean).
The CC50 of OC[C@H]1O[C@@H](Oc2cc3c(O)cc(O)cc3[o+]c2-c2ccc(O)c(O)c2)[C@H](O)[C@@H](O)[C@@H]1O is reported as 59 ± 24 µM (Huh-7, mock-infected; MTS; 4 (unit not given)).
The CC50 of CC[C@H](C)[C@@H]1NC(=O)[C@H](CC(C)C)NC(=O)[C@@](C)(NC(=O)[C@H](Cc2ccccc2)NC(=O)[C@H](Cc2ccc(O)cc2)NC(=O)[C@H](C)NC(=O)[C@@H](N)[C@@H](C)O)CCCC=CCCC[C@@](C)(C(=O)NCC(=O)N[C@@H](CCCNC(=N)N)C(=O)N[C@@H](Cc2c[nH]c3ccccc23)C(N)=O)NC(=O)[C@H](CC(C)C)NC1=O is reported as 41 ± 15 µM (MT-4).
The CC50 of N=C(N)NCC12C3CCC4C3C3C(CCC31)C42 is reported as 45 µM (dog cells; cytotoxicity; 3 (unit not given)).
For O=C(O[C@@H]1Cc2c(O)cc(O)cc2O[C@H]1c1ccc(O)c(O)c1)c1cc(O)c(O)c(O)c1, the CC50 was 33.8 ± 7.9 µM (Huh-7, mock-infected; MTS; 4 (unit not given)).
With COc1cc(/C=C/c2ccc3c(c2)[C@@H](c2cc(O)cc(O)c2)[C@H](c2ccc(O)cc2)O3)cc(OC)c1 the CC50 was 79.5 µM (dog cells; 24 (unit not given)).
